# Measurements from different studies.
# Numbers after ± are the reported error.
# Chain of UniProt P49327 (whole entry, looked up): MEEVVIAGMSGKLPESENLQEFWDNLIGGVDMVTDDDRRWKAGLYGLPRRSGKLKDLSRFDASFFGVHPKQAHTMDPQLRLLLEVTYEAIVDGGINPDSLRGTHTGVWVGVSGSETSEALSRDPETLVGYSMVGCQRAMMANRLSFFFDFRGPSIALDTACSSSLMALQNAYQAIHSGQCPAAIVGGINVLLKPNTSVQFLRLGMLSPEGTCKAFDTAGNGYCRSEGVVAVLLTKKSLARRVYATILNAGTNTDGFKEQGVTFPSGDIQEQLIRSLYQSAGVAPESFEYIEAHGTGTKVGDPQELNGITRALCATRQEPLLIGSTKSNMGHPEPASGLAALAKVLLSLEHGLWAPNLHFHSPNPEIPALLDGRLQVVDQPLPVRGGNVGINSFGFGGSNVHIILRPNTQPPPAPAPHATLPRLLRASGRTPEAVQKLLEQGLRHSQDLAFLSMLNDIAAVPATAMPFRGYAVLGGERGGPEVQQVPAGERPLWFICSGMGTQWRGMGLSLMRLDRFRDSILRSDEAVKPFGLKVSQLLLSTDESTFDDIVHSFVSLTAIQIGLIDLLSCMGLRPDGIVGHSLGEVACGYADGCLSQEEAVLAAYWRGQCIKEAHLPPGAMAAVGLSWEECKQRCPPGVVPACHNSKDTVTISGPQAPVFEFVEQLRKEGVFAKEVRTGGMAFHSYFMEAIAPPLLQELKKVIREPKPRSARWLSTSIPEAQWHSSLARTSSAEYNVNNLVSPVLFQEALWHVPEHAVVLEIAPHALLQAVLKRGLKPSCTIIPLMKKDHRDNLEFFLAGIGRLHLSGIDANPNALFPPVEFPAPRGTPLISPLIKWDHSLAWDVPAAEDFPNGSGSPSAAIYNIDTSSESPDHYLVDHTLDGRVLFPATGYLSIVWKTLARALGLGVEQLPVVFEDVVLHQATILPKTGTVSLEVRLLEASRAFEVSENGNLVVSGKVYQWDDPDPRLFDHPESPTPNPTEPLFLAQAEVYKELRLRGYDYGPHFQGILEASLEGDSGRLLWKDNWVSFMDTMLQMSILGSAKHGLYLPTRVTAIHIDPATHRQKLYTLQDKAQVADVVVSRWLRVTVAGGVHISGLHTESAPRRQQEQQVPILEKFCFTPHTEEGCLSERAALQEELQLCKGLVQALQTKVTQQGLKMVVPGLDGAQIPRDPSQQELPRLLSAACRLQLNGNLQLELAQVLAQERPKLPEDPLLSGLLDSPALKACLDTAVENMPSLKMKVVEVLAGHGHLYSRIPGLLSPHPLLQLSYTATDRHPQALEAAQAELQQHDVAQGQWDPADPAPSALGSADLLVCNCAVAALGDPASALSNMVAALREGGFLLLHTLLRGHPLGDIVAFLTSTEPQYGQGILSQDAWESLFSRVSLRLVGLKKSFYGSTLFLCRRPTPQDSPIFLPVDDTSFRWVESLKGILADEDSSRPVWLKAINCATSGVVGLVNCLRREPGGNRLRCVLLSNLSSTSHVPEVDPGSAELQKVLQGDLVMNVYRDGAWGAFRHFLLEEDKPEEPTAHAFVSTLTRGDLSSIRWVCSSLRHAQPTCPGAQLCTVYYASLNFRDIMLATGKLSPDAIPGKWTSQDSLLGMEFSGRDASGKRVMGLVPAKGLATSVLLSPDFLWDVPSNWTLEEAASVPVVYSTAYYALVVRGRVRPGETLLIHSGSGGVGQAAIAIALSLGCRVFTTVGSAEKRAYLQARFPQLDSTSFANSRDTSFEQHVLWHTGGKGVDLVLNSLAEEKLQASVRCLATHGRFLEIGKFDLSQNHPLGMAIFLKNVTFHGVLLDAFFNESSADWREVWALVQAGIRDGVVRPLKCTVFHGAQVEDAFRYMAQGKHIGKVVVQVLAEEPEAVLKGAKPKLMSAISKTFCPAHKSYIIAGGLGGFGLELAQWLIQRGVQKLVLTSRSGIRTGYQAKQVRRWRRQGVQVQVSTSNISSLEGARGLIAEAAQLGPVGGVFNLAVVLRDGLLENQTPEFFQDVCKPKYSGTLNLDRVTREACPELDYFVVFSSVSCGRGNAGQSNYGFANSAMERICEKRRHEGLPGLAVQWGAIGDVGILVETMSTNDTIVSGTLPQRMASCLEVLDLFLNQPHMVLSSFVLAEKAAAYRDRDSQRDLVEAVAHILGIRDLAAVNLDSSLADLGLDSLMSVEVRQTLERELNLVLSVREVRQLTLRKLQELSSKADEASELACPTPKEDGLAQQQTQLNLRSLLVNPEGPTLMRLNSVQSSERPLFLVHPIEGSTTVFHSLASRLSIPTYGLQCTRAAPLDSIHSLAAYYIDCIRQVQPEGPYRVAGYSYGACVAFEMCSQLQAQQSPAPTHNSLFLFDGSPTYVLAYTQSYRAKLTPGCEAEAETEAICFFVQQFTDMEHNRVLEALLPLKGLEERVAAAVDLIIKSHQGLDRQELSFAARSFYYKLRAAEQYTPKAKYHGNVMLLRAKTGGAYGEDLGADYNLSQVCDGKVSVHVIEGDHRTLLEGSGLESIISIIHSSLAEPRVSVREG
# Chain of UniProt P34897 (whole entry, looked up): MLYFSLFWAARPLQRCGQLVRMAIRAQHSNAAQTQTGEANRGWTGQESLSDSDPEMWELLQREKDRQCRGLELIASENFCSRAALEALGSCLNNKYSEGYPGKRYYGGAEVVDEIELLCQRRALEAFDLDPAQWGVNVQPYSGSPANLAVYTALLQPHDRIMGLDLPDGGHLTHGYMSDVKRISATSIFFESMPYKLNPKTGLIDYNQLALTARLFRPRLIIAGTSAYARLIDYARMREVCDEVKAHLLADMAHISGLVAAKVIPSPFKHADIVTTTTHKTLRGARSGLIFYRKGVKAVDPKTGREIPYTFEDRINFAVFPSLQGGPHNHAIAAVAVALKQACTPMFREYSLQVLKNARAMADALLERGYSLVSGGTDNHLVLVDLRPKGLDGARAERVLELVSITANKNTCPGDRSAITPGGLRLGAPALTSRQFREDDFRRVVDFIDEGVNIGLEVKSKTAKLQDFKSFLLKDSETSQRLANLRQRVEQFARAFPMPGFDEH
# Chain of UniProt P70698 (whole entry, unmodified, looked up): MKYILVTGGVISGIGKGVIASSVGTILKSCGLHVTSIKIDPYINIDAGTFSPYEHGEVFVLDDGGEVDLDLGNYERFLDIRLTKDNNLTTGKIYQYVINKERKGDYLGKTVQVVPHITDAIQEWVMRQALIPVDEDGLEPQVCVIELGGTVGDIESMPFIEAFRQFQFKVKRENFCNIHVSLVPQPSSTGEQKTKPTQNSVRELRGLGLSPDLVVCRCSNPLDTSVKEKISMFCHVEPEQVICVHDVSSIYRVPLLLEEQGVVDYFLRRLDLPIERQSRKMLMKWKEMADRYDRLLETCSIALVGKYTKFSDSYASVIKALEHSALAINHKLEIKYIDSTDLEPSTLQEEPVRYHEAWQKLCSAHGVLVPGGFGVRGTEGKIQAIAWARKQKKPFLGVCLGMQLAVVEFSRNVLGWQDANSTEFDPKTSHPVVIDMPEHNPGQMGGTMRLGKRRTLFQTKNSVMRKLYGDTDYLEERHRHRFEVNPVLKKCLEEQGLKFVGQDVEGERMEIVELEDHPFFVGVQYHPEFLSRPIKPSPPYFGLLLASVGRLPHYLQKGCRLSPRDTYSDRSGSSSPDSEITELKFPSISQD
# Chain of UniProt P23443 (whole entry, looked up): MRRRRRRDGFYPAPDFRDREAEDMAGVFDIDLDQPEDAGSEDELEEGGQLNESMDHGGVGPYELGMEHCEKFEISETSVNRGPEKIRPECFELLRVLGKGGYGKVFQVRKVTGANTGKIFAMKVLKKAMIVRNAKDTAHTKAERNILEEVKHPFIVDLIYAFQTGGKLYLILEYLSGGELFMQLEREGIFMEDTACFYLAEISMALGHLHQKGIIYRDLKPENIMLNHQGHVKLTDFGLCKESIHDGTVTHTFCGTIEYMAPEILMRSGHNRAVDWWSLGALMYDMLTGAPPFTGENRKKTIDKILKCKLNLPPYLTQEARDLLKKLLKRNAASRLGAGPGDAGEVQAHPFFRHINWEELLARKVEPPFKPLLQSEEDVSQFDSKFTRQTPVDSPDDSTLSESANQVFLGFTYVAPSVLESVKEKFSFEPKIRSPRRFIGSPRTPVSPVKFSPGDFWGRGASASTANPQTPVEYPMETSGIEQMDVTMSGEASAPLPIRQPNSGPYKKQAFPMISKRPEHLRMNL
# Chain of UniProt P25774 (whole entry, looked up): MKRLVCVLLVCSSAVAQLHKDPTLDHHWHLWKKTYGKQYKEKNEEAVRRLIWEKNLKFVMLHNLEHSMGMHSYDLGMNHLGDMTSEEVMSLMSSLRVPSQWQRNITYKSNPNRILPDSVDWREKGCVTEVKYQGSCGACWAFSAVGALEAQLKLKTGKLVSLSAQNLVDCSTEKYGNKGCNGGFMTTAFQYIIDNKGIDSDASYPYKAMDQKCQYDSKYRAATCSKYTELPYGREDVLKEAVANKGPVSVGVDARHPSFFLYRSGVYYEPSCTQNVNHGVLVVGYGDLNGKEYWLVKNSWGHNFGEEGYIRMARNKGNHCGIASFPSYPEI
# Chain of UniProt Q99436 (whole entry, looked up): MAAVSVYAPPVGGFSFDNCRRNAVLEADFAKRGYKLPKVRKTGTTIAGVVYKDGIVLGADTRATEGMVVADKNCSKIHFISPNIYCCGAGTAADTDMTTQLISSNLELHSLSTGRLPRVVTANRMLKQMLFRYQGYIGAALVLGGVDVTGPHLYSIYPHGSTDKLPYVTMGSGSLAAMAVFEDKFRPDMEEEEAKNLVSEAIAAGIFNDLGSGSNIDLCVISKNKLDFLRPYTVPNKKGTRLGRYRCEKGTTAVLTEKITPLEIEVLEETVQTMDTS
# Chain of UniProt P49720 (whole entry, looked up): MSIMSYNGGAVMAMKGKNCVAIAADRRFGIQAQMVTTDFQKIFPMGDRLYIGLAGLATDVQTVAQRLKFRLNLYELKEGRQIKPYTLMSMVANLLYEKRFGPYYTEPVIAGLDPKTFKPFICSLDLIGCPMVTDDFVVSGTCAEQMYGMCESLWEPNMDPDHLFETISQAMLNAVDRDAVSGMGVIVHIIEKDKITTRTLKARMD
target,test,test system,setting,IC50 [µM],Structure (SMILES)
"Serine hydroxymethyltransferase, mitochondrial (SHMT2, Homo sapiens, UniProt P34897)","serine to glycine conversion, inhibitor",,"pH 7.5, 1% DMSO, added: L-serine 1 mM, THF 0.2 mM",> 100,C[C@H](CCC(=O)N(C)CC(=O)O)[C@H]1CC[C@H]2[C@@H]3CC[C@@H]4C[C@H](O)CC[C@]4(C)[C@H]3C[C@H](O)[C@]12C
"TP53-binding protein 1 (Homo sapiens, UniProt Q12888)","methyl-lysine reader binding, inhibitor, AlphaScreen",,,> 100,CC(C)(C)NCCCNC(=O)c1ccnc(Br)c1
"Ribosomal protein S6 kinase beta-1 (RPS6KB1, Homo sapiens, UniProt P23443)","enzyme activity, inhibitor",,,0.2,Cn1c2c(c3ccc(Cl)c(Cl)c31)C(C#N)C1(CCNCC1)NC2=O (racemic)
"Large neutral amino acids transporter small subunit 1 (SLC7A5, Homo sapiens, UniProt Q01650)","transporter uptake, inhibitor, radiometric",,,23,N[C@@H](Cc1c[nH]c2ccc(OCc3ccc(I)cc3)cc12)C(=O)O
"Lactoylglutathione lyase (GLO1, Homo sapiens, UniProt Q04760)","enzyme activity, inhibitor",,,32.1,O=C(O)c1ccc(/N=N/c2cc3ccccc3c(C(=O)O)c2O)cc1
"Proteasome subunit beta type-3/PSMB7 (Homo sapiens, UniProt P49720+Q99436)",inhibitor,,,> 100,COc1ccc2c(c1)C(CC(=O)NC(C(=O)NC(CCc1ccccc1)C(=O)NCc1ccc(C)cc1)C(C)O)CC2=O (centres unmarked)
"Kelch-like ECH-associated protein 1, Kelch domain (KEAP1, Homo sapiens, UniProt Q14145)","Keap1-Nrf2 interaction, inhibitor, fluorescence polarization",,,1.38 ± 0.1,CCOc1ccc(S(=O)(=O)Nc2cc(CC(=O)N3CCOCC3)c(NS(=O)(=O)c3ccc(OCC)cc3)c3ccccc23)cc1
"Proteasome Macropain subunit MB1 (PSMB5, Homo sapiens, UniProt P28074)","chymotrypsin-like activity, inhibitor",purified 20S proteasome,"15 min preincubation, 37 °C, added: Suc-Leu-Leu-Val-Tyr-AMC substrate",0.57 ± 0.05,C=C(NC(=O)C(=C)NC(=O)c1csc(C2=NC3c4csc(n4)C4NC(=O)c5csc(n5)C(C(C)(O)C(C)O)NC(=O)C5CSC(=N5)C(=CC)NC(=O)C(C)NC(=O)c5csc(n5)C3(CC2)NC(=O)C(C)NC(=O)C(=C)NC(=O)C(C)NC(=O)C(C(C)CC)NC2C=Cc3c(C(C)O)cc(nc3C2O)C(=O)OC4C)n1)C(N)=O (centres unmarked)
"Casein kinase I isoform delta (CSNK1D, Homo sapiens, UniProt P48730)",,,,4.8,O=C(Nc1nc2cc(C(F)(F)F)cc(NC3CC3)n2n1)c1cccnc1
"Advanced glycosylation end product-specific receptor (AGER, Homo sapiens, UniProt Q15109)","AGE2-BSA binding, inhibitor, competitive ELISA",,added: AGE2-BSA,13.2,O=C(c1cc2ccc(Cl)cc2s1)N(c1ccc(OCCN2CCCC2)cc1)c1ccc(OCCN2CCCC2)cc1
alpha-glucosidase (yeast),enzyme activity,,added: pNPG,12.5 ± 1.22,CC(C)=CCC[C@](C)(O)[C@H]1CC[C@]2(C)[C@@H]1[C@H](O)C[C@@H]1[C@@]3(C)CC[C@H](O)C(C)(C)[C@@H]3CC[C@]12C
"Fatty acid synthase (FASN, Homo sapiens, UniProt P49327)","palmitate synthesis, inhibitor",human cells,,0.009,COCc1nc(C(F)(F)F)[nH]c1-c1cc(C(=O)N2CC(c3ccc(C#N)cc3)C2)c(C)cc1C
"Ctps1 (Mus musculus, UniProt P70698, I250T)",cell growth,CTPS-null Jurkat expressing Ctps1,3 d,0.421,CCOc1cncc(-c2ccc(NC(=O)C(CC)c3ccnc(NS(=O)(=O)C4CC4)n3)nc2)n1 (centres unmarked)
"Cathepsin S (CTSS, Homo sapiens, UniProt P25774)","enzyme activity, inhibitor",,,42,[2H]C1([2H])CC[C@@H](C[C@@H](C#N)NC(=O)[C@@H]2[C@@H]3[C@H](CN2C(=O)[C@@H](NC(=O)C(F)F)C(C)(C)C)C3(C)C)C(=O)N1

# Excerpt of the above:
target,test,test system,setting,IC50 [µM],Structure (SMILES)
"Proteasome Macropain subunit MB1 (PSMB5, Homo sapiens, UniProt P28074)","chymotrypsin-like activity, inhibitor",purified 20S proteasome,"15 min preincubation, 37 °C, added: Suc-Leu-Leu-Val-Tyr-AMC substrate",0.57 ± 0.05,C=C(NC(=O)C(=C)NC(=O)c1csc(C2=NC3c4csc(n4)C4NC(=O)c5csc(n5)C(C(C)(O)C(C)O)NC(=O)C5CSC(=N5)C(=CC)NC(=O)C(C)NC(=O)c5csc(n5)C3(CC2)NC(=O)C(C)NC(=O)C(=C)NC(=O)C(C)NC(=O)C(C(C)CC)NC2C=Cc3c(C(C)O)cc(nc3C2O)C(=O)OC4C)n1)C(N)=O (centres unmarked)
